# Measured values of several laboratories.
# Every numbered part comes from another study and shows a few of its results, in no order. Substitutions count along the parent as printed.

# Study 1
# Target: RING finger protein unkempt homolog, zinc fingers 1-6, GST-SBP tag (UNK, Homo sapiens, UniProt Q9C0B0, residues 30-357)
# Method: RNA Bind-n-Seq
# Molecule type: RNA
# Matrix: in vitro
# Tested at: not given
# Notes: RNA with constant flanks, human-mouse chimeric sites, ends assumed
# Baseline: input RNA pool
# Reading: higher = stronger binding
# Shared flanks, not repeated: GGGAGUUCUACAGUCCGACGAUC … CAACAGAGGAUUGAGCAUCA
# Target sequence (chain): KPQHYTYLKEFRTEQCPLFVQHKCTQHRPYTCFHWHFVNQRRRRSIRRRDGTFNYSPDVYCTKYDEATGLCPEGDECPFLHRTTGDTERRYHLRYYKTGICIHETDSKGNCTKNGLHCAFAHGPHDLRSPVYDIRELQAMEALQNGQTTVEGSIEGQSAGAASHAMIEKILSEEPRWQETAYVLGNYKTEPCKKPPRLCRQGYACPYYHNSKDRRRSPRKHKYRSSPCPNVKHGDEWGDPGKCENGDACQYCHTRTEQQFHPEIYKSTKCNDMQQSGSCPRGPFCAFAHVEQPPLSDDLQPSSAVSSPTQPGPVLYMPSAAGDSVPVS
Strand,bound/input enrichment
AGAGCCCAGGAUGUUGAUGCUACAAAUCCAAAUUACGAAAUUAUGUGUAUGAUCAGAGACUUUAGAGGGAGCUUGGAUUACAGACCCCUAACAACAGCAGAUCCUAUUGAUGAACAUAGG,0.566 ratio
CGCUUGGAUGAGGCGGGUGUCACAGAUGAAGUGCUGGAUUCUGCCAUGCAAGCCUUCCUUCUGGAGGUCAUUGUUAAGCAUGGGGAGCCGGCACCUUAUUUAUGUAACAAAGAUCCGUUU,0.0663 ratio
CUGUGACCACAAGAUCCUGAAGUUUGAGCAGCUGAAGUUGACUCCCUCUCCUUGCCUGAACCCCCCCCCACUGCCCCCCCAUCCCCCGCAGAAUUCCGAGAUGUUGCCUCUGCACGGUUC,1.32 ratio
GGUGGGGUGGUCAUUGCGCCAAUUGAGGCUGAUUUUCAUGAGUCGCCUUCAAAACUCUCGUGUAGGGUUGACAAUGUGGGGGGGUGGGGGAUCCAGCUAUUUUUUUUAUUUUCAAGUCCA,6.26 ratio
GGACAUCUGUCAAAUUGUUAUGUUCCUGUGAAACAAGUGAACACUCUGAUACACUUCAUCUGCUUGUACAUCUGUAUUUGUAUAAUAUGUAAAUAUGUUAAUCCAAGAUGAAUUCAACUU,0.118 ratio
AUUCCGAUUAUGGACACCGGUGAAAACCCAGAGGUGCCCUUCCCCCGGGACAUGAUCGACUUAGAGGCCAAUUUUGAGAAGAUUGAAAAUGAACUGAAGGAAAUCAACACAAACCAGGAA,0.169 ratio
GGGGAGAAACCUUAUGAGUGUGUGCAGUGUGGGAAAUCCUACAGUCAGAGCUCAAACCUCUUCAGACAUCAGAGAAGACACAAUGCAGAAAAACUUUUGAAUGUUGUGAAGGUUUAAGAA,0.221 ratio
GCUGAAAAUGAAGAAGAGGCAGCUGAUGUCUGGUACAACCUGGGGCAUGUAGCUGUGGGAAUCGGAGAUACAAAUUUGGCCCACCAAUGCUUCAGGCUGGCCCUGGUCCACAACAACCAC,0.136 ratio

# Study 2
# Target: ABI1, truncated, D143A, DHFR fusion (Arabidopsis thaliana)
# Method: DHFR PCA, deep sequencing
# Matrix: yeast
# Notes: methotrexate growth selection, single substitutions
# Together with: (+)-ABA 58 µM
# Baseline: wild-type fitted maximum
# Reading: higher = stronger binding
# Starting sequence: PYL1, truncated, DHFR fusion (Arabidopsis thaliana); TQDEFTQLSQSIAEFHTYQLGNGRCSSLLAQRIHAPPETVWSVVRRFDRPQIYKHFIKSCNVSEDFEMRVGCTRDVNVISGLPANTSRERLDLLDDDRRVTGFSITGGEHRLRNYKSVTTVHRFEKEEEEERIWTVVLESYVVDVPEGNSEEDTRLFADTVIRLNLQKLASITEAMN; partner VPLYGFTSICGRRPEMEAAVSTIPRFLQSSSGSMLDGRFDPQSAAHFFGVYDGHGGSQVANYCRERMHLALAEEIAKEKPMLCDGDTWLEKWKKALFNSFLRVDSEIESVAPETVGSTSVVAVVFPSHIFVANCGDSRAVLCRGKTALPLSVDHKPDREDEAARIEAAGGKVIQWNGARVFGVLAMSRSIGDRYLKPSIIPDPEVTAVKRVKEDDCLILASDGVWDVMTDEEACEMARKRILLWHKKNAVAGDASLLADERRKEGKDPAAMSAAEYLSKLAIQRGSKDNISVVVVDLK
Variant,relative binding score
A170V,41%
L82A,30.7%
S140F,2.41%
V78L,89.3%
E89Y,-12.2%
G148Q,63.8%
K168F,45.9%
S9G,90.2%
T101L,89.9%
G107T,37.9%
L112W,-0.0873%
C25R,4.96%
V70R,61.2%
A158C,93.2%
F47V,-0.746%
R32N,66.5%
A84K,5.54%

# Study 3
# Target: CCNB3, cyclin fold, Cln2 fusion (human)
# Method: yeast growth competition, sequencing
# Matrix: yeast
# Notes: weak parent motif
# Baseline: not given
# Reading: higher = stronger binding
# Starting sequence: CDKN1A docking peptide (human); SKACRRLFGPVDS
Variant,normalised enrichment score
F8N,0.181
R6C,0.169
L7E,-0.157
C4R,1.22
K2D,0.525
P10Q,0.0699
F8D,0.137
C4V,0.577
K2E,0.385
P10V,0.183
D12G,0.311
A3C,0.678
C4N,0.223
P10M,0.424
V11D,0.722
L7P,0.0613
K2N,0.703
R6Q,0.1
F8I,0.254
C4A,0.427
G9H,0.499
P10H,0.39
D12A,0.422
C4T,0.481
R6E,-0.0363

# Study 4
# Target: ATF3, bZIP domain (human)
# Method: DHFR protein complementation
# Matrix: yeast
# Notes: single substitutions, most at no-binding floor
# Baseline: wild-type JUN-FOS pair
# Reading: higher = stronger binding
# Starting sequence: JUN, bZIP domain (human); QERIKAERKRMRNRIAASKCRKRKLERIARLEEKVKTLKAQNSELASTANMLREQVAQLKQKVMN; partner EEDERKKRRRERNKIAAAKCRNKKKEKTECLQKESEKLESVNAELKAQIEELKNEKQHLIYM
Variant,binding fitness
A49T,-0.494 natural log
K36D,-0.246 natural log
T48S,-0.303 natural log
L45E,-1.42 natural log
N42W,-0.474 natural log
A40E,-0.079 natural log
K34A,-0.319 natural log
E44P,-1.15 natural log
R53N,-0.424 natural log
L45Q,-1.18 natural log
T37E,-0.0605 natural log
E33C,-0.355 natural log
L38S,-0.983 natural log
Q41K,-0.288 natural log
I28P,-0.226 natural log
Q41T,-0.286 natural log

# Other studies, line by line
Substance,target,test,system,setting,how to read,quantity,result
"PhoQ, residues 284 288 289 292 302 303 ALAMYF","PhoP, residues 12 14 15 18 19 LHHVQ (Escherichia coli, UniProt P23836)","Sort-seq, measured: YFP reporter",E. coli,"PhoQ-PhoP variant library, together with: 10 µM Mg2+","baseline: high Mg2+ state, higher = stronger signaling",fold induction,0.72

# A few entries again (study 3):
Variant,normalised enrichment score
P10H,0.39
L7P,0.0613
C4A,0.427
P10Q,0.0699
